Results gathered from unrelated publications.
Each numbered part is a random draw from the data of one study; scales do not carry over between parts. Changes are numbered by the printed parent chain.

Study 1 — technique: protein-binding microarray; molecule type: double-stranded DNA, one strand shown; sample: in vitro; concentration: 2200 nM top; notes: 60-bp whole probe; with: salmon DNA 0.4 mg/ml; relative to: random background probes; reading: higher = stronger binding; measurement: fitted relative affinity
Target: Interferon regulatory factor 7, full length, phosphomimetic (IRF7, Homo sapiens, UniProt Q92985, residues 1-503, S471D/S472D/S475D/S476D/S477D/S483D/S484D/S487D)
Shared flanks, not repeated: GCCTAGCAC … GTGCTAGGTCTTGATTCGCTTGACGCTGCTG
Target sequence (chain): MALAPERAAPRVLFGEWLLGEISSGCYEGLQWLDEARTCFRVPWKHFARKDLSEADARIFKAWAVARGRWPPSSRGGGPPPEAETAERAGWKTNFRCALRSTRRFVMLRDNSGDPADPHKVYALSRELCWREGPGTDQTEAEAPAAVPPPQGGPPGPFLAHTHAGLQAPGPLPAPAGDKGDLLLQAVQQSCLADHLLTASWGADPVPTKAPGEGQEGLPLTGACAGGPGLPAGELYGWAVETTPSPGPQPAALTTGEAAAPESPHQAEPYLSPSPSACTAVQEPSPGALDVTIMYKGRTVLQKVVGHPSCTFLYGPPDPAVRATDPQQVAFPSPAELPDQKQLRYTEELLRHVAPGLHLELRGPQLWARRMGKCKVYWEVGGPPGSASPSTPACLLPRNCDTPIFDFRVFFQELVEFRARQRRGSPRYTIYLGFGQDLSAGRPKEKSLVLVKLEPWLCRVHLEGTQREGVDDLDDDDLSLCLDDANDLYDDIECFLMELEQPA
Oligonucleotide = GAGTGGTTCTGCTTCTTAGC; value = 0.728 z-score
Oligonucleotide = TTAGGAATCGGACTGGGTTA; value = -0.414 z-score
Oligonucleotide = GACGAACTGTGTATCGAGAC; value = 0.183 z-score
Oligonucleotide = GAGGGTTTCCTACTGCTGAC; value = 0.411 z-score
Oligonucleotide = ATAGGTTTCGGTCTCGGTTA; value = 6.89 z-score
Oligonucleotide = TCATTTTTTTCCCTGAAACT; value = 1.4 z-score
Oligonucleotide = TTAGGTCTCCTACTGCTGTA; value = 0.378 z-score
Oligonucleotide = GACAGTATCGGTATCGGGAC; value = 0.626 z-score

Study 2 — target: CCND1, cyclin fold, Cln2 fusion (human); technique: yeast growth competition, sequencing; sample: yeast; notes: strong parent motif; relative to: not given; reading: higher = stronger binding; measurement: normalised enrichment score
Parent: SCAPER docking peptide (human); SNARRSLNFGGST; partner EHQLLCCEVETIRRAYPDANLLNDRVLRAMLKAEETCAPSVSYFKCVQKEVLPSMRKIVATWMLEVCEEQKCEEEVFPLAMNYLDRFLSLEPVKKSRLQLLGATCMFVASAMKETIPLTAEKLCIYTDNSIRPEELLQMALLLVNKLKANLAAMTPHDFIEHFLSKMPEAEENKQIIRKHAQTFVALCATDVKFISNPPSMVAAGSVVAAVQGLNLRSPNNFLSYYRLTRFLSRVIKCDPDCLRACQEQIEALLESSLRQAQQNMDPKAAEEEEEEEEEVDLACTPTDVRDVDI
Substitution = SCARRSLNFGGST [N2C]; value = 0.802
Substitution = SNARRSLNFGSST [G11S]; value = 1.14
Substitution = SNARRSLNFPGST [G10P]; value = 0.57
Substitution = GNARRSLNFGGST [S1G]; value = 0.413
Substitution = SNRRRSLNFGGST [A3R]; value = 0.0152
Substitution = QNARRSLNFGGST [S1Q]; value = 0.547
Substitution = SNARRFLNFGGST [S6F]; value = 1.33
Substitution = SQARRSLNFGGST [N2Q]; value = 1.03
Substitution = SNARRSCNFGGST [L7C]; value = 0.389

Study 3 — technique: aptamer microarray, sandwich; molecule type: DNA with 2'F-ANA; sample: in vitro; concentration: 200 nM; with: Cy3 exosite-II aptamer, 400 nM; reading: higher = stronger binding; measurement: mean fluorescence intensity; oligonucleotide: GGTTGGTGTGGTTGG
Target: Prothrombin, mature alpha-thrombin (F2, Homo sapiens, UniProt P00734)
Notes: whole 15-mer aptamer, many near background
Modification = 2'F-ANA at 2 4 6 9 11 12 13 14; value = 79.7 a.u.
Modification = 2'F-ANA at 1 3 7 8 10 12 13 14 15; value = 68 a.u.
Modification = 2'F-ANA at 1 4 5 6 7 8 9 12; value = 116 a.u.
Modification = 2'F-ANA at 1 3 4 5 8 9 10 11; value = 46.5 a.u.
Modification = 2'F-ANA at 2 3 4 6 12; value = 825 a.u.
Modification = 2'F-ANA at 2 7 8 9 11 12 14; value = 172 a.u.
Modification = 2'F-ANA at 2 3 5 6 9 12 13 14 15; value = 51.6 a.u.

Other studies, line by line
Molecule = PhoQ, residues 284 288 289 292 302 303 MLMVEA; target = PhoP, residues 12 14 15 18 19 QWHVF (Escherichia coli, UniProt P23836); assay = Sort-seq, item: YFP reporter; test system = E. coli; conditions = PhoQ-PhoP variant library, with: 10 µM Mg2+; how to read = relative to: high Mg2+ state, higher = stronger signaling; measurement = fold induction; value = 8.75
